Published values pooled from the literature.
“And” joins repeats or separate records; there may be more than shown.
TEK: Angiopoietin-1 receptor (TEK, Homo sapiens, UniProt Q02763)

| SMILES | target | assay | system | setting | how to read | measurement | value |
| --- | --- | --- | --- | --- | --- | --- | --- |
| CN1CCN(Cc2ccc(NC(=O)c3cccc(C#Cc4cnc(N)c5ncccc45)c3)cc2C(F)(F)F)CC1 | TEK | cell-free assay, competition with immobilised ligand |  | 0.5 µM |  | remaining binding | 0.6% |
| CCN1CCN(Cc2ccc(NC(=O)c3ccc(C)c(NC(=O)c4cncc(-c5cnn(C)c5)c4)c3)cc2C(F)(F)F)CC1 | TEK | binding, competition with immobilised ligand |  | 1 µM |  | remaining binding | 34% |
| CNC(=O)C[C@H](Cc1ccc(C#N)cc1)NC(=O)c1cc(-c2ccc(CN[C@H](C)c3ccc(C)cc3)o2)ccc1Cl | TEK | enzyme activity, inhibitor |  | 1 µM |  | activity vs control | 117% |
| COc1ccc(NC(=O)Nc2ccc3c(c2)C(=O)N(C(C)CO)CC(C)C(CN(C)Cc2ccc4c(c2)OCO4)O3)cc1 (stereo not shown) | TEK (Homo sapiens, UniProt Q02763, Y897S) | kinase activity |  | 0.03 µM | baseline: control | remaining activity | 83% |
| C=CC(=O)N1Cc2nc(-c3cc(-c4cc(Cl)cnc4Cl)c(F)cc3F)n(-c3ccncn3)c2C1 | TEK | cell-free assay |  | 1 µM |  | inhibition | 8% |
| COc1cc(Nc2nccc(-c3cnn4nc(OC)ccc34)n2)cc(C(F)(F)F)c1 | TEK | binding, competition with immobilised ligand |  | 1 µM |  | remaining binding | 100% |
| O=C(Cc1ccc(OCc2ccccc2)cc1)NC1(C(=O)O)CCN(C(=O)c2ccc(-c3cccc(Cl)c3)cc2)CC1 | TEK | enzyme activity, inhibitor |  | 10 µM |  | activity vs control | 167% |
| Cc1ccc(-c2c(/C=C(\C#N)C(=O)NC(C)C)n(CCCO)c3ncnc(N)c23)cc1 | TEK | cell-free assay, competition with immobilised ligand |  | 1 µM |  | remaining binding | 62% |
| CC(C)=CC1OC(C)(C)C2C=C3C(=O)C(Cl)=CC(O)C3C3C(O)C4OC4C(=O)C132 (stereo not shown) | TEK | cell-free assay, competition with immobilised ligand |  | 10 µM |  | remaining binding | 100% |
| COc1c(Cl)cccc1Nc1c(-c2ccncc2C#C[C@@]2(C)CCCN2C(=O)/C=C/CN(C)C)[nH]c2c1C(=O)NCC2 | TEK | cell-free assay, competition with immobilised ligand |  | 3 µM |  | remaining binding | 97% |
| CNS(=O)(=O)Nc1nccc(Cc2c(C)c3ccc(Oc4ncccc4F)cc3oc2=O)c1F | TEK | cell-free assay, competition with immobilised ligand |  | 10 µM |  | remaining binding | 100% |
| COc1cc(-n2cc3cc(F)cc(C(N)=O)c3n2)cc(Cl)c1C1CC(O)(CCO)Cc2ccccc21 (stereo not shown) | TEK | enzyme activity, inhibitor |  | 10 µM |  | inhibition | 0.57% |
| O=C=[N][Ru-4]123([n]4c5ccc(O)cc5c5c6c(c7cc(F)c[n+]1c7c54)C(=O)NC6=O)[S+]1CC[S+]2CC[S+]3CC1 (stereo not shown) | TEK (Homo sapiens, UniProt Q02763, R849W) | enzyme activity |  | 100 nM, human enzyme, added: 10 µM ATP | baseline: untreated | remaining activity | 98% |
| Cc1cccc(O[C@H]2CCC[C@@H](C(C)CNCc3ccncc3)C2)c1 (relative stereo) | TEK | cell-free assay |  | 1 µM |  | inhibition | 9% |
| C=CC(=O)Nc1cccc(-c2cnc3[nH]cc(C(=O)NC(C)(C)C)c3n2)c1 | TEK | kinase activity |  | 0.1 µM |  | inhibition | -1% and 1% |
| C[C@H]1CN(C(=O)c2cn(-c3ccnc(N)n3)c3cc(C#CC4(O)CCCCC4)ccc23)CCN1 | TEK | enzyme activity, inhibitor, FRET |  | 1 µM |  | inhibition | 3% |
| CNC(=O)C1CCN(c2cc(C)c(F)cc2NC(=O)c2ccc(-c3cc(O)ccc3C)c(C)c2)CC1 | TEK | binding, competition with immobilised ligand |  | 1 µM |  | remaining binding | 100% |
| CC(=O)N1c2ccc(-c3ccc(CNC(=O)c4cn5cc(-c6cnc(N)nc6)nc(N6CCOCC6)c5n4)cc3)cc2CC[C@@H]1C | TEK | KINOMEscan |  | 10 µM |  | remaining binding | 94% |
| CNC1C[S+]2CC[S+]3CC[S+](C1)[Ru-4]321([N]=C=S)[n]2c3ccc(OC)cc3c3c4c(c5cc(F)c[n+]1c5c32)C(=O)NC4=O (stereo not shown) | TEK | KinomeScan |  | 0.1 µM | baseline: untreated | remaining binding | 88% |
| Cc1ccc(C(=O)Nc2ccc(CN3CCN(C)CC3)c(C(F)(F)F)c2)cc1C#Cc1cnc2cccnn12 | TEK | NanoBRET target engagement | human cells |  |  | upper asymptote | 96.8 |
| NC(=O)[C@@H](O)C[C@H]1CCc2sc3ncnc(O[C@H]4CC[C@H](N5CCOCC5)CC4)c3c21 | TEK | enzyme activity, inhibitor |  | 10 µM |  | inhibition | 3% |
| CN1CCN(Cc2ccc(-c3ccc(CO[C@H]4CCC[C@@H]4NC(=O)c4cc(-c5cnn(C)c5)cnc4N)cc3)cc2)CC1 | TEK | enzyme activity, inhibitor |  | 0.1 µM |  | inhibition | 9% |

Some of these lines once more:
| SMILES | target | assay | system | setting | how to read | measurement | value |
| --- | --- | --- | --- | --- | --- | --- | --- |
| CNC1C[S+]2CC[S+]3CC[S+](C1)[Ru-4]321([N]=C=S)[n]2c3ccc(OC)cc3c3c4c(c5cc(F)c[n+]1c5c32)C(=O)NC4=O (stereo not shown) | TEK | KinomeScan |  | 0.1 µM | baseline: untreated | remaining binding | 88% |
| CN1CCN(Cc2ccc(-c3ccc(CO[C@H]4CCC[C@@H]4NC(=O)c4cc(-c5cnn(C)c5)cnc4N)cc3)cc2)CC1 | TEK | enzyme activity, inhibitor |  | 0.1 µM |  | inhibition | 9% |
| O=C(Cc1ccc(OCc2ccccc2)cc1)NC1(C(=O)O)CCN(C(=O)c2ccc(-c3cccc(Cl)c3)cc2)CC1 | TEK | enzyme activity, inhibitor |  | 10 µM |  | activity vs control | 167% |
